Measured values from different studies.
Compare with care: the assays were run in different laboratories. ± gives the spread as reported.

Sequences of proteins named here, by UniProt entry; tags and fusion partners are left off.
UniProt P41146, whole entry: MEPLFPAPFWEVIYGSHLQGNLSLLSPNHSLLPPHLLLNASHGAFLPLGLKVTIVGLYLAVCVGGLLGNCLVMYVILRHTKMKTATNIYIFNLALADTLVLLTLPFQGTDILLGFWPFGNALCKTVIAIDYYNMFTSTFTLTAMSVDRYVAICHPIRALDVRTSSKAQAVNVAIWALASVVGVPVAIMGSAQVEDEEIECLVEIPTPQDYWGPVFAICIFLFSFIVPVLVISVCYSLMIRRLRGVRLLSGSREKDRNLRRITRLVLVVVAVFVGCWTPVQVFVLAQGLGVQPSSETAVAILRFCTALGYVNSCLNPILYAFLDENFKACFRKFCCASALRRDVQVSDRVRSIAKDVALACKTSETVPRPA
UniProt P35372, whole entry: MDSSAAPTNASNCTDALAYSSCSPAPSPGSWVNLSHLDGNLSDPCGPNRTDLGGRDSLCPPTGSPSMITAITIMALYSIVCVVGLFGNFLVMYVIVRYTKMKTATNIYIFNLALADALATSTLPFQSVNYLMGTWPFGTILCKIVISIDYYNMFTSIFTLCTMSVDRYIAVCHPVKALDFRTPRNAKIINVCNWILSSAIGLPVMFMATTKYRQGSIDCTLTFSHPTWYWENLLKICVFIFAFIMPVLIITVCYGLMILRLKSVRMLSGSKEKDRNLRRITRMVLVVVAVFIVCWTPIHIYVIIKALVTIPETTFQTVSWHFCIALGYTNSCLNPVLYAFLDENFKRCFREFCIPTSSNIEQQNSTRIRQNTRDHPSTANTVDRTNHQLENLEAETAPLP

With Nc1ncnc2c1ncn2[C@@H]1O[C@H](COP(=O)(O)OP(=O)(O)OP(=O)(O)O)[C@@H](O)[C@H]1O the kcat decrease was 40 fold (nicotinamide mononucleotide adenylyltransferase R133A, His-tagged; substrate; relative to: R133A over wild type).
CCOC(=O)OC(=O)OCC: “specific [3H]saxitoxin binding abolished” > 50% (TTX-sensitive Na channel (rat brain); rat brain membranes; 10 mM, 1 h, pH 5.5 or 7.5, room temperature).
For CCC1C(=O)N(C2CCN(C/C=C/c3ccccc3)CC2)c2ccccc21 (stereo not shown), the Ki was > 10000 nM (Nociceptin receptor (OPRL1, Homo sapiens, UniProt P41146); radioligand displacement; added: [3H]N/OFQ).
The IC50 of `gymnodimine A` is reported as 70.4 ± 13.2 nM (nicotinic acetylcholine receptor (Torpedo marmorata); binding; Pecten maximus extract 25 mg/mL, added: biotin-α-bungarotoxin).
CCC1C(=O)N(C2CCN(C3CCCc4ccccc43)CC2)c2ccccc21 (stereo not shown) gave a Ki of 1.05 ± 0.14 nM (Mu-type opioid receptor (OPRM1, Homo sapiens, UniProt P35372); radioligand displacement; added: [3H]DAMGO).
The Hill slope of `pinnatoxin A` is reported as 1.31 ± 0.21 (nicotinic acetylcholine receptor (Torpedo marmorata); binding; added: biotin-α-bungarotoxin).
O=[As]c1ccccc1 (stereo not shown) — result for “Y2 receptor density change”: ≤ 15% (guinea pig Y2 receptor; CHO-Y2 particulates; 30 µM; relative to: control).
Under “half-time of inhibition”, CCN1C(=O)C=CC1=O is recorded as ~25 min (TTX-resistant Na channel (sheep heart); 33 mM, room temperature).
With `carbon monoxide` the koff was 1.1 s⁻¹ (Clostridium botulinum H-NOX Y139F; dissociation, NO displacement).
The EC50 of NC12CC3CC(CC(C3)C1)C2 is reported as < 1000 nM (Influenza A virus; viral replication, plaque size reduction; MDCK, A/Swine/Iowa/13-0515/2010 (H3N2)).
`pinnatoxin G` has an IC50 of 24.7 ± 11.4 nM (nicotinic acetylcholine receptor (Torpedo marmorata); binding; Pecten maximus extract 25 mg/mL, added: biotin-α-bungarotoxin).
O=C([O-])c1ccc[n+]([C@@H]2O[C@H](COP(=O)(O)O)[C@@H](O)[C@H]2O)c1 has a K0.5 increase of 64 fold (nicotinamide mononucleotide adenylyltransferase R133A, His-tagged; substrate; relative to: R133A over wild type).
`nitric oxide` has a koff of 0.005 s⁻¹ (Clostridium botulinum H-NOX Y139F; dissociation, sequential stopped-flow; six-coordinate heme-His complex).

A few entries again:
O=[As]c1ccccc1 (stereo not shown) — result for “Y2 receptor density change”: ≤ 15% (guinea pig Y2 receptor; CHO-Y2 particulates; 30 µM; relative to: control).
